Experimental data of several laboratories.
Numbers after ± are the reported error.
Cell line: HT-29

CC(C)=CCC/C(C)=C/CC/C(C)=C/CC/C=C(\C)CC/C=C(\C)CCC=C(C)C — IC50 (cell growth or viability, resazurin; 96 h): 8.2 µg/mL
C=C(CC[C@@H](CO)[C@H]1CC[C@@]2(C)[C@@H]3CC[C@H]4[C@H](C)[C@@H](O)CC[C@@]45C[C@@]35CC[C@]12C)C(C)C — IC50 (cell growth or viability): > 10 µM
COc1ccc(/C=C/C(/C=C2/C(=O)Nc3cc(Br)ccc32)=N\O)cc1 — IC50 (cell growth or viability, MTT; 24 h): 3.9 µM
COc1cc2oc3c(C)c(OC)c(CC=C(C)C)c(O)c3c(=O)c2c(CC=C(C)C)c1OC — IC50 (cell growth or viability, fluorescence; 2 h): 1.4 µM
CS(=O)(=O)c1ccc(C2=C(c3ccccc3)C(=O)OC2)cc1 — IC50 (cell growth or viability, thymidine uptake; 72 h): > 500 µM
COc1cc2oc3cc(OC)c(OC)c(CC=C(C)C)c3c(=O)c2c(O)c1CC=C(C)C — IC50 (cytotoxicity, sulforhodamine B; 72 h): > 20 µM
CSc1ccc(/C=C2/C(C)=C(CC(=O)O)c3cc(F)ccc32)cc1 — IC50 (cell growth or viability, thymidine uptake): 33.9 µM
COc1ccc(/C=C/C(=O)/C=C2/C(=O)Nc3cc(Br)ccc32)cc1 — IC50 (cell viability, MTT; 24 h): 1.4 µM
CC(=O)O[C@H]1C(=O)[C@@]2(C)[C@H]([C@H](OC(=O)c3ccccc3)[C@]3(O)C[C@H](OC(=O)[C@H](O)[C@@H](NC(=O)c4ccccc4)c4ccccc4)C(C)=C1C3(C)C)[C@]1(OC(C)=O)CO[C@@H]1C[C@@H]2O — IC50 (cytotoxicity): 0.001 µM
Brc1ccc2c(c1)[I+]c1cc(Br)ccc1-2 — IC50 (oxygen consumption rate, Seahorse; 30 min): 5.96 ± 2.82 µM
CC(C)[C@H]1CC[C@]2(C)C(=O)CCC(C=O)=C[C@H]12 — IC50 (cytotoxicity): > 20 µM
CC(C)=CCC/C(C)=C/Cc1c(O)c(CC=C(C)C)c(O)c2c(=O)c3cc(O)ccc3oc12 — IC50 (cytotoxicity, sulforhodamine B; 72 h): 16.1 µM
CC(C)=CC(=O)[C@@H](O)[C@@H](C)[C@H]1CC[C@@]2(C)[C@@H]3CC[C@H]4C(C)(C)[C@@H](O)CC[C@@]45C[C@@]35CC[C@]12C — IC50 (cell growth or viability): > 10 µM
CC1=C(CC(=O)O)c2cc(F)ccc2/C1=C\c1ccc(S(C)(=O)=O)cc1 — IC50 (cell growth or viability, thymidine uptake; 72 h): 89 µM

A few entries again:
COc1cc2oc3c(C)c(OC)c(CC=C(C)C)c(O)c3c(=O)c2c(CC=C(C)C)c1OC — IC50 (cell growth or viability, fluorescence; 2 h): 1.4 µM
CS(=O)(=O)c1ccc(C2=C(c3ccccc3)C(=O)OC2)cc1 — IC50 (cell growth or viability, thymidine uptake; 72 h): > 500 µM
